Results gathered from unrelated publications.
Protocols differ between the studies behind these lines. ± gives the spread as reported.
Spike glycoprotein: Spike glycoprotein (Severe acute respiratory syndrome coronavirus 2, UniProt P0DTC2)
gag-pol K652A reverse transcriptase: Gag-Pol polyprotein, reverse transcriptase (gag-pol, Human immunodeficiency virus type 1 group M subtype B, UniProt P04585, K652A)
gag-pol D654N/K657R/K806Q/T802F reverse transcriptase: Gag-Pol polyprotein, reverse transcriptase (gag-pol, Human immunodeficiency virus type 1 group M subtype B, UniProt P04585, D654N/K657R/K806Q/T802F)
gag-pol integrase: Gag-Pol polyprotein, integrase (gag-pol, Human immunodeficiency virus type 1 group M subtype B, UniProt P04585)

Compound	tested on	assay	test system	setting	quantity	result
Cc1cn([C@H]2C=C[C@@H](COP(=O)(O)OP(=O)(O)OP(=O)(O)O)O2)c(=O)[nH]c1=O	Gag-Pol polyprotein, reverse transcriptase (gag-pol, Human immunodeficiency virus type 1 group M subtype B, UniProt P04585, K653T)	inhibitor	HIV-1		IC50	6.84 ± 1.18 µM
Nc1ncnc2c([C@@H]3N[C@H](CO)[C@@H](O)[C@H]3O)c[nH]c12	Japanese encephalitis virus	viral replication, inhibitor	Vero 76	0.9 µM	inhibition	0%
CC1=C(/C=C/C(C)=C/C=C/C(C)=C/C=C/C=C(C)/C=C/C=C(C)/C=C/C2=C(C)CCCC2(C)C)C(C)(C)CCC1	Spike glycoprotein	binding, biolayer interferometry			Kd	110 µM
C[C@H](Cn1cnc2c(N)ncnc21)OCP(=O)(O)O	gag-pol K652A reverse transcriptase	inhibitor	HIV-1		IC50	5.663 ± 0.00123 µM
C[C@@H]1O[C@@H](Oc2c(-c3cc(O)c(O)c(O)c3)oc3cc(O)cc(O)c3c2=O)[C@H](O)[C@H](O)[C@H]1O	Spike glycoprotein	binding, biolayer interferometry			Kd	124 µM
O=P(O)(O)C(O)(Cc1cccc(-c2ccc(Cl)cc2)c1)P(=O)(O)O	gag-pol D654N/K657R/K806Q/T802F reverse transcriptase				IC50	0.794 µM
CC[C@H](C)[C@H](NC(=O)[C@H](CC(C)C)NC(=O)[C@H](Cc1c[nH]c2ccccc12)NC(=O)[C@H](CCC(N)=O)NC(=O)[C@@H](NC(=O)[C@H](Cc1ccccc1)NC(=O)[C@H](C)NC(=O)[C@H](CCCCNC(=O)COCCOCCNC(=O)COCCOCCNC(=O)CC[C@H](NC(=O)CCCCCCCCCCCCCCCCCCC(=O)O)C(=O)O)NC(=O)[C@H](CCC(N)=O)NC(=O)[C@H](C)NC(=O)[C@@H](NC(=O)[C@H](CCCCN)NC(=O)[C@H](CC(=O)O)NC(=O)[C@H](CC(C)C)NC(=O)C(C)(C)NC(=O)[C@@H](NC(=O)[C@H](CO)NC(=O)[C@H](Cc1ccc(O)cc1)NC(=O)[C@H](CC(=O)O)NC(=O)[C@H](CO)NC(=O)[C@@H](NC(=O)[C@H](Cc1ccccc1)NC(=O)[C@@H](NC(=O)CNC(=O)[C@H](CCC(=O)O)NC(=O)C(C)(C)NC(=O)[C@@H](N)Cc1ccc(O)cc1)[C@@H](C)O)[C@@H](C)O)[C@@H](C)CC)[C@@H](C)CC)C(C)C)C(=O)N[C@@H](C)C(=O)NCC(=O)NCC(=O)N1CCC[C@H]1C(=O)N[C@@H](CO)C(=O)N[C@@H](CO)C(=O)NCC(=O)N[C@@H](C)C(=O)N1CCC[C@H]1C(=O)N1CCC[C@H]1C(=O)N1CCC[C@H]1C(=O)N[C@@H](CO)C(N)=O			healthy subjects, single ascending dose	0.25 mg, day 29	serum AST	23 ± 5.4 U/L
CC(N)(Cc1ccc(O)c(O)c1)C(=O)O (racemic)	gag-pol integrase	enzyme activity, inhibitor			IC50	> 25 µM
O=C(O)c1ccc(-c2cccc(/C=N/NC(=O)c3cc(O)c(O)c(O)c3)c2)cc1	Gag-Pol polyprotein, reverse transcriptase A502G (gag-pol, Human immunodeficiency virus type 1 group M subtype B, UniProt P04585, A1089G)	RNase H activity, inhibitor	HIV-1		IC50	1 ± 0.7 µM
CCCCCCc1ccc(NC(P(=O)(O)O)P(=O)(O)O)cc1	gag-pol D654N/K657R/K806Q/T802F reverse transcriptase				IC50	> 100 µM
COc1ccc2ccccc2c1/C=N/NC(=O)c1ccc(O)c(O)c1	Gag-Pol polyprotein, reverse transcriptase A502G/D256G (gag-pol, Human immunodeficiency virus type 1 group M subtype B, UniProt P04585, A1089G/D843G)	RNase H activity, inhibitor	HIV-1		IC50	> 50 µM
Cn1cnc(Cn2c(=O)[nH]/c(=N\c3cc4cn(C)nc4cc3Cl)n(Cc3cc(F)c(F)cc3F)c2=O)n1			human, all renal function groups	oral, 375 mg	anaemia TEAE, Mild severity	3.1%
O=C(Nc1sc2c(c1C(=O)Nc1ccccn1)CCCCC2)c1ccc(O)c(O)c1	Gag-Pol polyprotein, reverse transcriptase p51 C280A (gag-pol, Human immunodeficiency virus type 1 group M subtype B, UniProt P04585, C867A)				IC50	0.52 ± 0.01 µM
O=P(O)(O)C(NC1CCCCCC1)P(=O)(O)O	gag-pol D654N/K657R/K806Q/T802F reverse transcriptase	inhibitor, biochemical			IC50	≥ 100 µM
NC1CCc2cc(O)c(O)cc2C1 (racemic)	gag-pol integrase	enzyme activity, inhibitor			IC50	> 25 µM
Cc1cn([C@H]2C[C@H](N=[N+]=[N-])[C@@H](CO[P@](=O)(O)O[P@](=O)(O)OP(=O)(O)O)O2)c(=O)[nH]c1=O	gag-pol K652A reverse transcriptase	inhibitor	HIV-1		IC50	0.3725 ± 0.00117 µM
O=C(O)c1ccc(-c2cccc(/C=N/NC(=O)c3ccc(O)c(O)c3)c2)cc1	Gag-Pol polyprotein, reverse transcriptase I505V (gag-pol, Human immunodeficiency virus type 1 group M subtype B, UniProt P04585, I1092V)	RNase H activity, inhibitor	HIV-1		IC50	1 ± 0.2 µM
O=P(O)(O)C(O)(Cn1ccnc1)P(=O)(O)O	gag-pol D654N/K657R/K806Q/T802F reverse transcriptase	inhibitor, biochemical			IC50	≥ 100 µM

For quick reference, copied from above:
Compound	tested on	assay	test system	setting	quantity	result
O=C(O)c1ccc(-c2cccc(/C=N/NC(=O)c3ccc(O)c(O)c3)c2)cc1	Gag-Pol polyprotein, reverse transcriptase I505V (gag-pol, Human immunodeficiency virus type 1 group M subtype B, UniProt P04585, I1092V)	RNase H activity, inhibitor	HIV-1		IC50	1 ± 0.2 µM
COc1ccc2ccccc2c1/C=N/NC(=O)c1ccc(O)c(O)c1	Gag-Pol polyprotein, reverse transcriptase A502G/D256G (gag-pol, Human immunodeficiency virus type 1 group M subtype B, UniProt P04585, A1089G/D843G)	RNase H activity, inhibitor	HIV-1		IC50	> 50 µM
O=P(O)(O)C(O)(Cn1ccnc1)P(=O)(O)O	gag-pol D654N/K657R/K806Q/T802F reverse transcriptase	inhibitor, biochemical			IC50	≥ 100 µM
